Measured values pooled from the literature.
Parts stem from different laboratories: compare values within a part only.

Sample 1
Target: Centromere-binding protein 1, full length, N-terminal tag (CBF1, Saccharomyces cerevisiae, UniProt P17106, residues 1-351)
Sequence of UniProt P17106 (whole entry, looked up): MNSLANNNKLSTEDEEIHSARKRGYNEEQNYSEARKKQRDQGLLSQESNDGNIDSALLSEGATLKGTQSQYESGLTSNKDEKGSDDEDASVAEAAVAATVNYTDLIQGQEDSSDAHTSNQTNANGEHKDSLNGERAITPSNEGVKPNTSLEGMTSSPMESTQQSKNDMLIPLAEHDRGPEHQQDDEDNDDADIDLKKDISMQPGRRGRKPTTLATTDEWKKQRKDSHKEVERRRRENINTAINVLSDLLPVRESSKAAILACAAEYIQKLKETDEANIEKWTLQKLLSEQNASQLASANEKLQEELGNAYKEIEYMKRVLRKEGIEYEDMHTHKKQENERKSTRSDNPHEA
Technique: protein-binding microarray
Form: double-stranded DNA, one strand shown
Sample: in vitro
Concentration: 0.8 µM
Notes: whole 60-bp probe, no competitor
Reading: higher = stronger binding
Shared flanks, not repeated: … GTCTTGATTCGCTTGACGCTGCTG
Oligonucleotide | fluorescence intensity [a.u.]
CTACGCTGTCAGCATCACCCTCACCTAAAGTGTTTC | 508
CTATTGTATCAGGCTAACGTGCACTTGGAAGGTTTC | 580
CTAATTACTAGGCATGATGTATGGAGGAACTTGTTC | 551
CTAATCGCTAGAAAATACGTGCGCGTTGCCAAATTC | 540
GAATTAGATCCTTGTCACATAATCATAAAAATATAG | 607
GAAGGTGCCGTTTGTCACGTGGGACGGGATGCGTAG | 9490
CTAGTTTTATTTACTGTCACCTTGATGAGCGACTTC | 538
CTACACGCTTTCACACACGCAATTTGAAATAGCTTC | 561
GAATTTTCCCAGAGACGCGTGGAAGCACCCATGTAG | 537
TGTACGAAGCTATCCCACGATAATATAGTAGTTAGG | 494
CTAATGCTTGCATCGTGCATGAATACATACCGCTTC | 547
GAAAGGAGTGGAGTAGTCGTGCTATATAGGGCATAG | 530
GAATTAATTAAGATCCATGTGAAGGTTCCAGAATAG | 631
CTATGGAGGGCAAATCACGATAGGAAGAGGCATTTC | 554
GAAACAGAGATTTTGAGCGTGATATTATTCCAATAG | 596
CTAAATAAATAACACGTGCTCATAAAAAATCAATTC | 16800
GAACCTACATAATTCAGCGTGATATGATGGAGTTAG | 632
GAAACAATAGAAAGAAACGTGGAAATTATTTAATAG | 561
GAATAAGGATTGGATCAGGTGCTTACAAATTTTTAG | 1490

Sample 2
Target: Sal-like protein 4, full length isoform B (SALL4, Homo sapiens, UniProt Q9UJQ4-2, residues 1-616)
Technique: universal PBM
Form: double-stranded DNA, one strand shown
Sample: in vitro
Concentration: not given
Notes: 8-mer, flanks averaged, mean of replicates
Reading: higher = stronger binding
Oligonucleotide | E-score
ATTCGCTC | 0.0505
ATGCTTAC | 0.0752
GTAGCCCA | -0.163
CCAAGTGC | -0.102
ACCCTTCA | 0.0332
CTGGTCGA | -0.307
AATGCCAA | 0.0932
CTCCCTCA | -0.2
CCGGTTAA | -0.177
GAACGTAC | -0.0682
AGAACATC | -0.0187
CATAAAGC | 0.0881
TACACTCA | 0.172
ATTTACAA | 0.325
CACGGTTA | 0.139
CCGTGACC | -0.312
GCAGCCGC | -0.289
CTTAAGGC | -0.174
ATGGGAGC | -0.156
ACGCAGAC | -0.0569
ACCCAGGT | -0.315

Sample 3
Target: RNA binding protein fox-1 homolog 2, RRM domain, GST-SBP tag (RBFOX2, Homo sapiens, UniProt O43251-10, residues 100-194)
Technique: RNA Bind-n-Seq
Form: RNA
Sample: in vitro
Concentration: 365 nM
Notes: natural RNA segment, single round, ends assumed
Baseline: no-protein control
Reading: higher = stronger binding
Shared flanks, not repeated: GGGAGUUCUACAGUCCGACGAUC … UGGAAUUCUCGGGUGCCAA
Target sequence (chain): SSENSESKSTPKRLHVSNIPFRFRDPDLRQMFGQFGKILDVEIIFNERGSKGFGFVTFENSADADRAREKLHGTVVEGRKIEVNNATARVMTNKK
Oligonucleotide | RBNS enrichment (R)
UCUCGGGCCCCGUAGGUACCAAGAGACUGUUUACCUCCCAGAAUGUUUGGGCUUGAAGUUACAUUAAAGUGAAGUUAUUUGAAAGAAAGAAAACCUCAUCAUUUCUAAGG | 0.756
CCCCUUCUGGCCCCCUGCCUGGAGCAUCUGGCAGCCCCACACCUGCCCUUGGGGGUUGCAGGCUGCCCCCUUCCUGCCAGACCGGAGGGGCUGGGGGGAUCCCAGCAGGG | 0.458
CAGGCUGGAGAAAUGGGAGCCCAGAGAGUGGAGAGUGAUUGGGAGUUACUUGUUCAUUCAAAUCUUGCACCCCCCCCCCCAAGGUUCUCAUUGUUGGAGAGGGUGGGGGA | 1.44
AACAGUUUUAUGCUGAUGAUAAUUUAUCUACAUGCAUUUCAAUAAACCUUUUGUUUCCUAAGACUAGUACAUGGUACCUUUAUUGACCAUUAAAAACCACCACUUUUUGC | 0.277
CUCGUGCCAAGAAGCCCUGGGCCAGGGCCAGGUGUUUCCAGAGCCAAGUGCCCAUGUGUGUAUGGGAAGAGGUGGCUAAAGCCACUAGACUAGGGUGCUCACCCCUCAAG | 0.411
UUCCUUGUCUUAGUAACAUUGUACAAAUAGUGGCUUAUUUUUAAGUUGUAAUGCCUCCUGAUGGAUAUAAUUUUGUGCUUGUAUUUAAGAUUAAAAGUUGAAUAAAUAAC | 0.369
AGGAGUCGGUAGGACUGUGCCUGUGCCUCCCUCAGCGGGGCCCUGGGCGGGGUUCCAAGGCCUGCGAGCUGGGAAAGGACAGAUGAGGGGACCUCGUGCCUUCUUGCUGU | 0.35
CUUCCCUGCUAUCCUUUUUCUCCUUUGGAGGUGCCCAACCUCCUCCACCCCCUUCCCCUACUCUAGGGGAGAGAGCUGCUAGUGAGAUGACUGUUUUAUAAAGAAAUGGA | 0.412

Sample 4
Target: Ras GTPase-activating protein-binding protein 1, full length (G3BP1, Homo sapiens, UniProt Q13283)
Sequence of UniProt Q13283 (whole entry, looked up): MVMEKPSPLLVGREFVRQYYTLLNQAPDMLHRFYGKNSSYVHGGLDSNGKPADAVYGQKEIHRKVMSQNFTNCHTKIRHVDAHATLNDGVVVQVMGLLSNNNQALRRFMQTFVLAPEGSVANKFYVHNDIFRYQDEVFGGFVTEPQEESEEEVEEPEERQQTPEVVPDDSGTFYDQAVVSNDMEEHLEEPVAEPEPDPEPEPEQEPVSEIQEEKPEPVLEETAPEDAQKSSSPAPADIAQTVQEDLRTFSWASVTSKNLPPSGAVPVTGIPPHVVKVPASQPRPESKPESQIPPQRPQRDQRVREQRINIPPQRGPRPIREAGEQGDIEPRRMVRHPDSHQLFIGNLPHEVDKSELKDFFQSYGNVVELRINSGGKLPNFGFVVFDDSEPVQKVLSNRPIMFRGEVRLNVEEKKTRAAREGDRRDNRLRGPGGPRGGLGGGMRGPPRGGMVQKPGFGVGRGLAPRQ
Technique: RNA Bind-n-Seq
Form: RNA
Sample: in vitro
Concentration: 200 nM
Notes: whole 134-nt RNA, ends assumed
Together with: 150 mM KCl
Baseline: input library
Reading: higher = stronger binding
Shared flanks, not repeated: GGGAGUUCUACAGUCCGACGAUC … UGGAAUUCUCGGGUGUCAAGG
Oligonucleotide | log2 enrichment
GCAGGAAGUAAAAACAAAUGGAAAUGCUUCGGAUAGUGGCAGGGGUGGGGGUUGCUACGGAAAGGGUGGGAUGGGAGUGGGUAAAGAGUU | 0.812
UAGUUUAUGCCAACGUGACUUCAUUCAUACAGAUGAACCAAGGAUCGGGAUAGCAGUAUAAAAUUAGAAUCAAGACAGCUGACUGCUCAG | -2.21
UCCUGUGCUACACAUCGUAUGUACCGAAUCGGAAAAAAGGGAAAAAAGGGAAAAAAGGGAAAGUAUUAUGUUACGCCGUUCGGAUCUGCA | -0.605
UCAAGUCCUGUGCUACACAUCGUAUGUACCGAAUCGGAAAGGAAAGGAAAGGGGAAAGUAUUAUGUUACGCCGUUCGGAUCUGCACUUCC | -0.803
UAACUUUAGAGGAGGAUCUGAUGCAUAUGGCAGUGGACGUGGAUUUGGGGAUGGCUAUAAUGGGUAUGGAGGAGGACCUGGAGGUGGCAA | 0.438
CACAGACAACACUCACCCACACAGACACAGAGGGAAGGGGUUGGGAUGGGGACAGGGUGCACAGCAGGGCGGGGUAGGACCCCAGCCCCU | 1.74
UGGGAGGUGGAUUUUGUUUAUUUUUUUAGCUCAUUUCCAGGGGUGGGAAUUUUUUUUUAAUAUGUGUCAUGAAUAAAGUUGUUGUUGAAA | 0.551
CACAGACAACACGCACCCACACAGACACAGAGGGAAGGGGAAAGGAUGGGGACAGGGUGCACAGCAGGGCGGGGUAGGACCCCAGCCCCU | 1.79
CACAGACAACACGCACCCACACAGACACAUAGGGAAGGGGUUGGGAUGGGGACAGGGUGCACAGCAGGGCGGGGUAGGACCCCAGCCCCU | 1.82

Sample 5
Target: Histone acetyltransferase KAT6A, both winged helices, GST fusion (KAT6A, Homo sapiens, UniProt Q92794, residues 1-181)
Technique: protein binding microarray
Form: double-stranded DNA, one strand shown
Sample: in vitro
Concentration: not given
Notes: 8-mer, flanks averaged, mean of 2 arrays, mostly near background
Baseline: not given
Reading: higher = stronger binding
Target sequence (chain): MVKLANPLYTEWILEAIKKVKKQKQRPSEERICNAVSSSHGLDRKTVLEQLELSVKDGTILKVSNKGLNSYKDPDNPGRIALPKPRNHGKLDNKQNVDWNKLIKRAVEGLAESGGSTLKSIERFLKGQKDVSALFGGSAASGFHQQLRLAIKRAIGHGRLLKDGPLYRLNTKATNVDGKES
Oligonucleotide | E-score
ACCACAGG | -0.124
TACCCCAA | -0.234
GGATGCAA | -0.118
ACAGATGC | -0.0347
CTACTCGC | 0.0588
TAGCCGGA | 0.246
CCACCAAG | -0.2
AAGAACGA | -0.0269
ACTCGAGT | -0.0747
AAAAGTAA | -0.146
AATAATGT | -0.0522
ACCACACT | -0.0943
AGGAGTTG | -0.034
ATTTACGA | 0.036
CTGTCGAC | 0.0641
CCATCCCG | 0.103
GACCTCAC | 0.0172
AAGGCCTG | -0.0542
GAGGACTA | -0.068
GATACTGA | 0.162
AACTGAAT | -0.114
